Assay results of several laboratories.
A part holds a random share of what one study measured. Substitutions count along the parent as printed.

Series 1
Target: NFE2, bZIP domain (human)
Technique: DHFR protein complementation
Medium: yeast
Notes: single substitutions, most at no-binding floor
Baseline: wild-type JUN-FOS pair
Direction: higher = stronger binding
Measurement: binding fitness
Starting sequence: JUN, bZIP domain (human); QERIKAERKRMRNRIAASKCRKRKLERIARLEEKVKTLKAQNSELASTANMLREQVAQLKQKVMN; partner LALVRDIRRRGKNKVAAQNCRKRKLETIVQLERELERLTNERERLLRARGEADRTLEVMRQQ
S47T: -1.48 natural log
L31E: -1.37 natural log
R53V: -1.36 natural log
L59H: -1.52 natural log
V56Q: -1.46 natural log
Q55P: -1.46 natural log
A57G: -1.33 natural log
R53T: -1.46 natural log
E44R: -1.5 natural log
V35Q: -1.53 natural log
M51Q: -1.43 natural log
N42W: -1.54 natural log
L59R: -1.5 natural log
E33G: -1.39 natural log
S43N: -1.34 natural log
R30S: -1.2 natural log
L52K: -1.53 natural log
L31W: -1.54 natural log
R30T: -1.34 natural log
L45W: -1.42 natural log

Series 2
Target: Histone acetyltransferase KAT6A, both winged helices, GST fusion (KAT6A, Homo sapiens, UniProt Q92794, residues 1-181)
Technique: protein binding microarray
Molecule type: double-stranded DNA, one strand shown
Medium: in vitro
Tested at: not given
Notes: 8-mer, flanks averaged, mean of 2 arrays, mostly near background
Baseline: not given
Direction: higher = stronger binding
Measurement: E-score
Residues (chain): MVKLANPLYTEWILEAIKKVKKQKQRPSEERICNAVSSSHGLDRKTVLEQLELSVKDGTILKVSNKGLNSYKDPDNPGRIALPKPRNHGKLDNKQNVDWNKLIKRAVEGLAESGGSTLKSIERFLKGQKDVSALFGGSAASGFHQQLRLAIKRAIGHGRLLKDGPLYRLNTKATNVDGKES
GGAGAGCC: 0.0775
CCGGTGGA: 0.0798
CATTGAAA: 0.0481
CGCTTGGA: 0.13
ATATTCCC: 0.0926
AACATGCG: 0.18
GAAACATC: 0.0453
CTTGAACC: -0.019
ATGACGCA: 0.0537
GAAGGCGC: 0.257
CTAGGCCC: -0.0782
ATACGGTA: 0.178
ACAAGAGG: -0.0897
ATAGGCCC: -0.055
ACACAGAC: -0.116
GTTATAGA: -0.0787
GGCTCGTA: 0.00263
CAAGTTAC: 0.0359
ACCACCTC: -0.189
AGCGCGCA: 0.399
CCCGCCTA: 0.171
CGCTCCTC: 0.0424
ACACTCGT: -0.141
TTAGCAAA: -0.0845
ATTAGGCG: 0.101

Series 3
Target: RING finger protein unkempt homolog, zinc fingers 1-6, GST-SBP tag (UNK, Homo sapiens, UniProt Q9C0B0, residues 30-357)
Technique: RNA Bind-n-Seq
Molecule type: RNA
Medium: in vitro
Tested at: not given
Notes: RNA with constant flanks, human and mouse sites, ends assumed
Baseline: input RNA pool
Direction: higher = stronger binding
Measurement: bound/input enrichment
Shared flanks, not repeated: GGGAGUUCUACAGUCCGACGAUC … CAACAGAGGAUUGAGCAUCA
Target sequence (chain): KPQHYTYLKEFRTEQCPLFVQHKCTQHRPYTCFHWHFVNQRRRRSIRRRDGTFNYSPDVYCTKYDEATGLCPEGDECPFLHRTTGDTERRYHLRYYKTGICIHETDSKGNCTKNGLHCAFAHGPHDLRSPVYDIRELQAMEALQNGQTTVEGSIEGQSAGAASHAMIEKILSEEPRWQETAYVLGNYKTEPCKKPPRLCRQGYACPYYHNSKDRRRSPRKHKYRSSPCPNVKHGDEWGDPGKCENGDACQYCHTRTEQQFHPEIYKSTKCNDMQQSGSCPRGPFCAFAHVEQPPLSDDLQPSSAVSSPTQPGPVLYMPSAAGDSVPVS
UUCAGGAUGCUGGUGUCACGUUUUGCCAGUCGGUUUCGGAAAGACUCGAGCACUGAGAUGGUUAGAACCAACUUGGCUCAUAGAAAGUCUCUGUCUCAGAAGGAGAACAGACACAGGGUG: 0.164 ratio
UUAAUCCCCUUUACUGCUCCCCCACUUCUCAUGGUAAUAACAAAGUCUUAUAUCCCCGUCCUAGCUUUCACUCAGAUGGCUUAUGGAGCCGGUUUCCUAGCUUUCUUGGGAGGGAUCAGA: 0.375 ratio
AAUAUGGCCAAGCAGAUCGGAGCAGCCACUUACAUAGAAUGCUCAGCUUUACAGUCAGAAAACAGCGUCAGAGACAUUUUUCACGUCGCCACCUUGGCGUGUGUAAAUAAGACAAAUAAA: 0.237 ratio
UCAUCAAUUGCAACUUCUUCAGUGAAAGGUCUUUCAACUACAGGAAACUCGUCUCUUAAUAGUACAUCCAACACUAAAGUGUCAGCGAUACCUACCAAUAUGGCUGCCAAGAAAACAUCU: 0.152 ratio
GAUGGAGACGAAGGCCCCAACACCGGGGGGAUGGGAGCCUACUGCCCAGCACCUCAGGUUUCUAAGGACUUGUUAGUAAAAAUUAAGAACACUAUUCUUCAGAGAGCAGUAGACGGCAUG: 1.36 ratio
UUCUUUCCCUUUUUCUUUCAGAGCUGUUGCGCAGCCAUUGGUACCUGUAUUGGGGAAACAUAGCAUACAAGCAAGAAGCUUACAGCCUCAGUGGCGAAAAUUUUUUCAUGUCAGAGACCG: 0.423 ratio
CAGGUUUCAUCAAUGGGAAUAACACCCUUUUUUGUGGAAAAUGUCAGUGAACUACAAUUGUGUGCCAUUAAGUUAGUCACUGCAGUAUUUUCAAGAUAUGAAAAGCAUAGGCAGUUAAUA: 0.561 ratio
GAGUGGCAUAAAGUUUUUGAUCUUCCUGAGUCGCUGGGUGGCAUUCGGGCUUGCACUCUCACAGUUUUUCCACCUGAAGAAAACCCUGGGUCACCUUCUAGAGAAUCACCUCUUUCAGCA: 0.247 ratio
UUCUUUUCUUUUCUUUUCUUUUCUUUUCUUUUCUUUUCUUUUCUUUUUUCUUUUUUUUUUUUUAGGCAGUGUGUUGCUAAACAGCCCUGGCUGGCCUGGGACUUGCUAUGUAGACCAGGC: 32.7 ratio
AGGACCAAAGAUGCCUCAACUUGGAUCCAGGUCCCUCUUGAAGAUACAAUGUCUCCUCGAACUUCCUUCACUGUGCAGGACCUCAAGCCUUUUACAGAAUAUGUGUUUAGGAUCCGGUCC: 0.0788 ratio
CAAACACCAGCAACAUCAGAGCUGAACUUCUUAAGAAAAGCACAGACAUUGGAAACAUAUGGAGUGGAUCCUCACCCAUGUAAGGACGUGUCAGGAAAUGCUGCAUUUCUGGCCUUCACU: 0.188 ratio

Series 4
Target: CEP164, C-terminal peptide (human)
Technique: DHFR complementation, deep sequencing
Medium: yeast
Notes: single substitutions, model-inferred values
Baseline: wild type
Direction: higher = weaker binding
Measurement: binding free energy change
Starting sequence: PDZK1, PDZ domain 2 (human); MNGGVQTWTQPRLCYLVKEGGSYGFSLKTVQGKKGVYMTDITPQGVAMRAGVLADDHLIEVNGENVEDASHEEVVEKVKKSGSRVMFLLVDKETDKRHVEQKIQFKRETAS; partner HNRVKVYRF
E76I: 0.337 kcal/mol
A54C: 0.0213 kcal/mol
K79R: 0.0816 kcal/mol
T7N: -0.115 kcal/mol
G45T: 1.4 kcal/mol
D91K: 0.0599 kcal/mol
E76H: 0.0727 kcal/mol
Y37T: -0.211 kcal/mol
Q10R: -0.119 kcal/mol
Q101Y: -0.0488 kcal/mol
G21R: 0.0344 kcal/mol
K92P: -0.0766 kcal/mol
E64M: 0.118 kcal/mol
K18D: 1.13 kcal/mol
K92H: 0.166 kcal/mol
V36Q: 0.76 kcal/mol
N2Y: -0.0104 kcal/mol

Series 5
Target: CCND3, cyclin fold, Cln2 fusion (human)
Technique: yeast growth competition, sequencing
Medium: yeast
Notes: weak parent motif
Baseline: not given
Direction: higher = stronger binding
Measurement: normalised enrichment score
Starting sequence: ITGB3BP docking peptide (human); MPVKRSLKLDGLL; partner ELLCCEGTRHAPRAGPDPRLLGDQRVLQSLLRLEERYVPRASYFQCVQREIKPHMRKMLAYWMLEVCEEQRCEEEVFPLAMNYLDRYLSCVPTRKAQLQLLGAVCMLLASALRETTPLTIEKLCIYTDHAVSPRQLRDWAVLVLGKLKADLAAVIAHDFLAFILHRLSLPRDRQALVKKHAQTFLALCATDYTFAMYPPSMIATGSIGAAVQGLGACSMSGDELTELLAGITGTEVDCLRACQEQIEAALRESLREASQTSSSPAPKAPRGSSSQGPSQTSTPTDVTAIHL
MPVKKSLKLDGLL [R5K]: -0.0911
APVKRSLKLDGLL [M1A]: 0.0453
MAVKRSLKLDGLL [P2A]: 0.134
MPVKRALKLDGLL [S6A]: 0.151
MPVKASAKLDGLL [R5A L7A]: 0.115
MPVKRSLKLAGLL [D10A]: 0.0691
MPVKRSLKFDGLL [L9F]: -0.184
MPVKASLKLDGLL [R5A]: 0.0617
MPVKRSLALDGLL [K8A]: 0.161
MPVKRSLKLDGLA [L13A]: 0.162

Series 6
Target: Prothrombin, mature alpha-thrombin (F2, Homo sapiens, UniProt P00734)
Technique: aptamer microarray, sandwich
Molecule type: DNA with 2'F-ANA
Medium: in vitro
Tested at: 200 nM
Notes: whole 15-mer aptamer, many near background
Added: Cy3 exosite-II aptamer, 400 nM
Direction: higher = stronger binding
Measurement: mean fluorescence intensity
Sequence: GGTTGGTGTGGTTGG
2'F-ANA at 2 4 6 7 9 11 12: 391 a.u.
2'F-ANA at 1 2 7 11 13 15: 125 a.u.
2'F-ANA at 2 3 5 6 7 10 15: 55.2 a.u.
2'F-ANA at 6 8 9 11 13: 370 a.u.
2'F-ANA at 2 3 4 7 8 9 10 11 13 14: 179 a.u.
2'F-ANA at 3 5 8 15: 144 a.u.
2'F-ANA at 2 5 6 8 11 12 14: 50.9 a.u.
2'F-ANA at 2 5 6 7 8 9 10 13: 48.2 a.u.
2'F-ANA at 2 5 7 9 14: 44.2 a.u.
2'F-ANA at 2 3 5 7 9 11 12 13 14 15: 137 a.u.
2'F-ANA at 2 3 4 5 7 8 10 12 14: 111 a.u.
2'F-ANA at 2 6 11 13: 283 a.u.
2'F-ANA at 1 4 5 6 9 10 11 12 13 15: 55.6 a.u.
2'F-ANA at 1 3 4 8 9 10 11 12 13 14 15: 55.2 a.u.
2'F-ANA at 2 3 7 8 9 11 12 14: 518 a.u.
2'F-ANA at 2 3 6 10 11 14 15: 219 a.u.
2'F-ANA at 1 4 6 7 8 9 10 12 15: 80.6 a.u.
2'F-ANA at 1 3 6 9 10 11 13 14 15: 58.7 a.u.
2'F-ANA at 2 3 4 5 15: 98.8 a.u.
2'F-ANA at 1 2 4 7 10 13: 50 a.u.
2'F-ANA at 4 5 6 7 9 10: 46.6 a.u.
2'F-ANA at 3 6 7 8 9 10 11 13 14 15: 339 a.u.
2'F-ANA at 1 2 3 4 5 6 7 8 10 15: 49.4 a.u.
2'F-ANA at 1 3 6 7 10 11 12 14: 76.5 a.u.

A few entries again (series 5):
MPVKKSLKLDGLL [R5K]: -0.0911
APVKRSLKLDGLL [M1A]: 0.0453
MAVKRSLKLDGLL [P2A]: 0.134
MPVKRALKLDGLL [S6A]: 0.151
MPVKASAKLDGLL [R5A L7A]: 0.115
MPVKRSLKLAGLL [D10A]: 0.0691
MPVKRSLKFDGLL [L9F]: -0.184
MPVKASLKLDGLL [R5A]: 0.0617
MPVKRSLALDGLL [K8A]: 0.161
MPVKRSLKLDGLA [L13A]: 0.162
